Experimental data pooled from the literature.
Numbered parts are unrelated; each lists some results of a single study. Positions count from the first letter of the parent shown.

Sample 1
Target: UDP-N-acetylglucosamine--peptide N-acetylglucosaminyltransferase 110 kDa subunit (OGT, Homo sapiens, UniProt O15294)
Effect on: binding
Technique: phage display NGS
Molecule type: peptide
Notes: panning round 2
Baseline: input library
Target sequence (O15294 1-1046): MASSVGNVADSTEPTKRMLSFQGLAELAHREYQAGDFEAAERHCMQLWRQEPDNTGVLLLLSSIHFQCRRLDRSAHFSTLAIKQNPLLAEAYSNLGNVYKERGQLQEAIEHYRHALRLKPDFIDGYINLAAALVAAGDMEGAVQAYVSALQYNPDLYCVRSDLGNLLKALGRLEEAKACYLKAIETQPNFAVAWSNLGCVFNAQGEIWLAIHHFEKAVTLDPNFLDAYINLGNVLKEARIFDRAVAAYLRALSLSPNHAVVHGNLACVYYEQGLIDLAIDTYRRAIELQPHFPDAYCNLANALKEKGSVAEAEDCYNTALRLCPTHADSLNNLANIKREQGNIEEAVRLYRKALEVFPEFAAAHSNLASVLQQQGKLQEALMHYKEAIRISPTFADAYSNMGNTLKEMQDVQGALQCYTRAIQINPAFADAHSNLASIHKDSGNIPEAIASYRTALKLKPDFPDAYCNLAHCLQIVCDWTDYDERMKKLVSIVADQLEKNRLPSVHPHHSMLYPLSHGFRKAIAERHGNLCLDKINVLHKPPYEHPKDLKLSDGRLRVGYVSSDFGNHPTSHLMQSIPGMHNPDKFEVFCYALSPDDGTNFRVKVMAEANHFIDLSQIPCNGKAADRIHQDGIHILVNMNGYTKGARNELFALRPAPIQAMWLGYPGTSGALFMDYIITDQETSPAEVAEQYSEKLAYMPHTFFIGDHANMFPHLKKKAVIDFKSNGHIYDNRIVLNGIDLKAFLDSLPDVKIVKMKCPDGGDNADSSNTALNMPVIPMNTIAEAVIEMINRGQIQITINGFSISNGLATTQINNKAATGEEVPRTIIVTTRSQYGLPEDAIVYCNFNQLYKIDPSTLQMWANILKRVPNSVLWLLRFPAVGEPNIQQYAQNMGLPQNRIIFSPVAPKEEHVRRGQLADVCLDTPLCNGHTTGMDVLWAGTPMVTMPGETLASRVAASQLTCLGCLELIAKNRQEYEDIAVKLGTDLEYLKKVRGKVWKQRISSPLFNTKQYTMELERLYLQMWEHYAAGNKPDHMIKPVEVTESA
Sequence	minimum log2 enrichment ratio
HYERHQSHPWEEFMH	2.64
HTYEQHWTHEIWHLA	2.3
GGNEEFKPFYQIFMP	2.41
GVQDYLPMYQISMSN	3.65
DPRHHTHYPIHTMGY	2.65
HYYQHPPIGDHHMAI	1.94

Sample 2
Target: inorganic phosphate, free oxyanion
Technique: microfluidic competitive inhibition
Sample: in vitro, cell-free expressed
Tested at: not given
Notes: derived from inhibition constants, unchanged parent 615000 nM
Direction: lower = stronger binding
Parent: PafA, mature enzyme, eGFP fusion (Elizabethkingia meningoseptica, UniProt Q9KJX5); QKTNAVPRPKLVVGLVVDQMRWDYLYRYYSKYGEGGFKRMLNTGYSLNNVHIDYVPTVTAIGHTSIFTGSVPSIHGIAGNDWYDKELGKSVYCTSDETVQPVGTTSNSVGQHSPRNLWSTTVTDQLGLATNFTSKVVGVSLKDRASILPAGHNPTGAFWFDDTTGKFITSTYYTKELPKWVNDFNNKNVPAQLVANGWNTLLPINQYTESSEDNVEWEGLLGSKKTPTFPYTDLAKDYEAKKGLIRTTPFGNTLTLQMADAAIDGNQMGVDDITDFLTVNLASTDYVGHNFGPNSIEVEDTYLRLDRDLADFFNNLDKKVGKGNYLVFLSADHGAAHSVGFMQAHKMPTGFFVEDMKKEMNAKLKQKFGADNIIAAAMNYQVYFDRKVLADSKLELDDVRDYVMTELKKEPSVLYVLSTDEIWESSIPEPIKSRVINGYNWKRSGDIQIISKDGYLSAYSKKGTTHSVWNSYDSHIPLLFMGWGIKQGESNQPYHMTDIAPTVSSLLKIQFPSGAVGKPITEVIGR
Change	phosphate dissociation constant [µM]
A5V	664
P178G	545
I436G	349
Q19V	255
D397V	709

Sample 3
Target: Prothrombin, mature alpha-thrombin (F2, Homo sapiens, UniProt P00734)
Technique: aptamer microarray, sandwich
Molecule type: DNA with 2'F-ANA
Sample: in vitro
Tested at: 200 nM
Notes: whole 15-mer aptamer, many near background
With: Cy3 exosite-II aptamer, 400 nM
Direction: higher = stronger binding
Oligonucleotide: GGTTGGTGTGGTTGG
Modification	mean fluorescence intensity
2'F-ANA at 1 2 3 4 6 7 8 9 11	141 a.u.
2'F-ANA at 1 3 4 5 7 10 11 12 13	47.6 a.u.
2'F-ANA at 2 5 6 12 13 14 15	68.9 a.u.
2'F-ANA at 5 9 10 15	46.7 a.u.
2'F-ANA at 2 3 4 5 6 7 8 12 13	129 a.u.
2'F-ANA at 1 2 3 5 7 9 11 12 14 15	89.7 a.u.
2'F-ANA at 2 3 5 9 10 12 14	49.5 a.u.
2'F-ANA at 1 2 3 4	214 a.u.

Mixed results
Sequence	target	assay	test system	setting	scale	endpoint	value
QKKAKRRLFTISDSGY	human cyclin A2	peptide binding, competitive growth sequencing	peptide, Saccharomyces cerevisiae, cyclin A2-Cln2 fusion strain	concentration not given, peptide tiling library	baseline: unfused Cln2 strain, direction not given	binding score	1.14

For quick reference, copied from above (sample 2):
Change	phosphate dissociation constant [µM]
P178G	545
D397V	709
